Measured values of several laboratories.
Parts stem from different laboratories: compare values within a part only.

Set 1 — method: aptamer microarray, sandwich; molecule type: DNA with 2'F-ANA; sample: in vitro; concentration: 200 nM; with: Cy3 exosite-II aptamer, 400 nM; direction: higher = stronger binding; quantity: mean fluorescence intensity
Target: Prothrombin, mature alpha-thrombin (F2, Homo sapiens, UniProt P00734)
Setting: whole 15-mer aptamer, many near background
GGTTGGTGTGGTTGG (2'F-ANA at 1 4 5 9 10 11): 48.7 a.u.
GGTTGGTGTGGTTGG (2'F-ANA at 1 6 7 9 15): 169 a.u.
GGTTGGTGTGGTTGG (2'F-ANA at 1 2 4 5 7 11): 49 a.u.
GGTTGGTGTGGTTGG (2'F-ANA at 7 10 11 12): 233 a.u.

Set 2 — method: protein-binding microarray; molecule type: double-stranded DNA, one strand shown; sample: in vitro; concentration: 2540 nM top; setting: 60-bp whole probe; with: salmon DNA 0.4 mg/ml; relative to: random background probes; direction: higher = stronger binding; quantity: fitted relative affinity
Target: Interferon regulatory factor 3, full length, phosphomimetic (IRF3, Homo sapiens, UniProt Q14653, residues 1-427, S386D/S396D/S398D/S402D/T404D/S405D)
Chain of UniProt Q14653 (whole entry, unmodified, looked up): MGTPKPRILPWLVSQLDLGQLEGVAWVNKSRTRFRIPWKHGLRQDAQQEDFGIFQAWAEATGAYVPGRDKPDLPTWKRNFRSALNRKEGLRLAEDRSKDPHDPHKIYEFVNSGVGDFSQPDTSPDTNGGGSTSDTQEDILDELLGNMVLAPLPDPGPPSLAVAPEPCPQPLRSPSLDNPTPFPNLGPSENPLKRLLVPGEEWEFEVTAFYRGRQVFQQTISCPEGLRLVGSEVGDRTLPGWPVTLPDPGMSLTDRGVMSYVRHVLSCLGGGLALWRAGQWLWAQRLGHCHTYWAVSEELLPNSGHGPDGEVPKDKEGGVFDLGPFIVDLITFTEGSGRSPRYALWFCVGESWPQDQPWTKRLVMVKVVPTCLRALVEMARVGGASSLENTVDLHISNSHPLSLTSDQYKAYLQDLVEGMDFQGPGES
GCCTAGCACTCACATTTTGGTTTTCCACTGTGCTAGGTCTTGATTCGCTTGACGCTGCTG: 1.81 z-score
GCCTAGCACGACGGTATCCTTCTCCAGACGTGCTAGGTCTTGATTCGCTTGACGCTGCTG: 6.75 z-score
GCCTAGCACGACGGTTTCGGTATTGGGACGTGCTAGGTCTTGATTCGCTTGACGCTGCTG: 7.67 z-score

Set 3 — method: protein binding microarray; molecule type: double-stranded DNA, one strand shown; sample: in vitro; concentration: not given; relative to: not given; direction: higher = stronger binding; quantity: E-score
Target: Histone acetyltransferase KAT6A, both winged helices, GST fusion (KAT6A, Homo sapiens, UniProt Q92794, residues 1-181)
Setting: 8-mer, flanks averaged, mean of 2 arrays, mostly near background
Construct (chain): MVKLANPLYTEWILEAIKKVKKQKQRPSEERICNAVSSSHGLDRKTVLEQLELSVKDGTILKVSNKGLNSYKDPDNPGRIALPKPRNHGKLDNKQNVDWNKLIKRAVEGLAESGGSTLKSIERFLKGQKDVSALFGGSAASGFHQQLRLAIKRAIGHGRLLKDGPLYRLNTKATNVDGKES
TCCTTCGA: 0.0533
GAGTCCGA: 0.0585
CCTGAGAC: -0.24

Mixed results
PhoQ, residues 284 288 289 292 302 303 GNNTDL — fold induction (PhoP, residues 12 14 15 18 19 NQAHL (Escherichia coli, UniProt P23836); Sort-seq, refers to: YFP reporter; E. coli; PhoQ-PhoP variant library, with: 10 µM Mg2+; relative to: high Mg2+ state, higher = stronger signaling): 8.11

Some of these lines once more (set 3):
TCCTTCGA: 0.0533
GAGTCCGA: 0.0585
